Assay results collected from several papers.
Compare with care: the assays were run in different laboratories. Numbers after ± are the reported error.
Organism: Plasmodium falciparum

With `CCn1cc(C2CC2)c2c(Cc3ccc(C(F)(F)F)nc3)n(C)nc2c1=O` the EC50 was 20 nM (parasite growth; 3D7).
The EC50 of `CCOCC(=O)N1C2CCC(C(=O)NCc3nc(-c4ccc(C#N)cc4)cs3)C1CC2` (stereo not shown) is reported as 33 ± 9.6 nM (SYBR Green growth; asexual blood-stage parasites, 3D7; 72 h).
`COc1ncc(Nc2ccnc3ccc(-c4ccc(S(=O)(=O)N5CCOCC5)cc4)cc23)cn1` gave an EC50 of 970 nM (parasite growth, SYBR Green; TM91C235).
For `N#Cc1ccc(-c2csc(CNC(=O)[C@H]3CCCN(C(=O)N4CCCO4)C3)n2)cc1`, the EC50 was 8.8 ± 1.9 nM (SYBR Green growth; asexual blood-stage parasites, 3D7; 72 h).
For `O=S(=O)(c1ccc(-c2ccc3nccc(Nc4ccncn4)c3c2)cc1)N1CCOCC1`, the EC50 was 8600 nM (parasite growth, SYBR Green; D6).
`CCn1cc(C2CC2)c2c(Cc3cnc(C(F)(F)F)c(C)c3)n(C)nc2c1=O` gave an EC50 of 4.4 nM (parasite growth; 3D7).
`O=C(NCc1nc(-c2ccccc2)cs1)[C@H]1CCCN(C(=O)[C@H]2CCCO2)C1` gave an EC50 of 91 ± 12 nM (SYBR Green growth; asexual blood-stage parasites, 3D7; 72 h).
For `CCn1cc(C)c2c([C@@H](O)c3ccc(C(F)(F)F)nc3)n(C)nc2c1=O`, the EC50 was 200 nM (parasite growth; 3D7).
For `O=S(=O)(c1ccc(-c2ccc3nccc(Nc4ccc(OCc5cccc(F)c5)cc4)c3c2)cc1)N1CCOCC1`, the EC50 was 1300 nM (parasite growth, SYBR Green; TM91C235).
`CCN(c1ccc(C)cc1)c1ccc(NC(=O)CN(C)c2ccccc2N2CCCC2=O)cn1` gave an EC50 of 78 nM (gametocyte viability, luciferase; stage V gametocytes; 48 h).
